Experimental data from different studies.
Each line is one published result; not all experiments were run side by side. Numbers after ± are the reported error.
Cell line: A-375

SMILES	read-out	mode	method	tested at	time	measurement	result
O=C(/C=C/C=C/C=C/C1CCCCC1)NC1=C[C@@](O)(/C=C/C=C/C=C/C(=O)NC2=C(O)CCC2=O)[C@@H]2O[C@@H]2C1=O	cell growth		CellTiter-Glo		78 h	GI50	20 µM
O=C(NN=Cc1ccc([N+](=O)[O-])s1)C1CC(=O)N(c2ccc(F)cc2F)C1 (stereo not drawn)	cell viability		MTT		72 h	EC50	6.4 ± 1.1 µM
COc1cc2ncnc(Nc3ccc(Oc4ccccc4)cc3C)c2cc1OC				0.3 µM	72 h	viability	91.7%
Cc1cnc(NC2CCOCC2)nc1-n1cnc(C(=O)NC(CN)c2cc(F)cc(Cl)c2)c1 (stereo not drawn)			flow cytometry	1 µM	48 h	S phase cells	4.6%
COc1cc(C(=O)c2nc(-c3cccc4c3CCN4)c[nH]2)cc(OC)c1OC	cell proliferation		MTS		72 h	IC50	0.0224 ± 0.0026 µM
Cn1cnc2c(F)c(Nc3ccc(Br)cc3F)c(C(=O)NOCCO)cc21				5 µM	72 h	viability	17.9%
C=C(F)C(=O)N1CCN(c2nc(OC[C@@H]3CCCN3C)nc3c2CCN(c2cccc4cccc(Cl)c24)C3)C[C@@H]1CC#N	cell viability		3D CellTiter-Glo			IC50	> 1 µM
Cc1ccc(C=NNC(=O)C2CC(=O)N(c3ccc(F)cc3F)C2)cc1 (stereo not drawn)	cell viability		MTT		72 h	EC50	1 ± 0.2 µM
CCn1cc(-c2cc(Cn3ccnc3)cc3c2CCN([C@H](c2cc(OC)ccn2)C2CC2)C3=O)c(C(F)(F)F)n1	cell growth	inhibitor			120 h	EC50	> 30 µM
O=C(NN=Cc1ccc(Br)cc1)C1CC(=O)N(c2ccc(F)cc2F)C1 (stereo not drawn)	cell viability		MTT		72 h	EC50	14.5 ± 1.5 µM
O=C(NOC[C@H](O)CO)c1ccc(F)c(F)c1Nc1ccc(I)cc1F				5 µM	72 h	viability	12.8%
COc1cnc2cccc(N3CCc4c(cc(Cn5ccnc5C)cc4-c4cn(C)nc4C(F)(F)F)C3=O)c2c1	cell growth	inhibitor			120 h	EC50	> 30 µM
